Experimental data pooled from the literature.
“And” joins repeats or separate records; there may be more than shown. ± gives the spread as reported.
Oprm1: Mu-type opioid receptor (Oprm1, Rattus norvegicus, UniProt P33535)
Sequence of UniProt P33535 (whole entry, looked up): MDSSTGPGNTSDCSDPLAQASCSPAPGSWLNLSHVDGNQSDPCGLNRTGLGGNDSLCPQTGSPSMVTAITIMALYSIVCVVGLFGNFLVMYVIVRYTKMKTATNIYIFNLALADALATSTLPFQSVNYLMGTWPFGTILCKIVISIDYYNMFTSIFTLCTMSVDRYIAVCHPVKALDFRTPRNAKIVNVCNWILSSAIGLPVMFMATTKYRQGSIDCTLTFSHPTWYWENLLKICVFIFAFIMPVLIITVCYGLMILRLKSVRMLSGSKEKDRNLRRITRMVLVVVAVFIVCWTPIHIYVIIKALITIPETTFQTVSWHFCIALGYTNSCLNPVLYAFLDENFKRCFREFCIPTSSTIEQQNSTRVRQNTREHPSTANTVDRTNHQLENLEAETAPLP
lasR: Transcriptional activator protein LasR (lasR, Pseudomonas aeruginosa, UniProt P25084)
sdiA: Regulatory protein SdiA (sdiA, Escherichia coli, UniProt P07026)
Sequence of UniProt P07026 (whole entry, looked up): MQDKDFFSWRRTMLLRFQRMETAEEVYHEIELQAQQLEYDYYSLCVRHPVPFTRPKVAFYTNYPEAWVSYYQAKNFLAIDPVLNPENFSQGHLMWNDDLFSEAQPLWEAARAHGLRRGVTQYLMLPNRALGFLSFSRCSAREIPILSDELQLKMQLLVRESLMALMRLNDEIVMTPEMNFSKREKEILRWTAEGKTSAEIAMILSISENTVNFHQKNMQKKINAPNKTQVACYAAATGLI
Uncharacterized hydrolase SAUSA300_2518: Uncharacterized hydrolase SAUSA300_2518 (Staphylococcus aureus, UniProt Q2FDS6)
Sequence of UniProt Q9H2X3 (whole entry, unmodified, looked up): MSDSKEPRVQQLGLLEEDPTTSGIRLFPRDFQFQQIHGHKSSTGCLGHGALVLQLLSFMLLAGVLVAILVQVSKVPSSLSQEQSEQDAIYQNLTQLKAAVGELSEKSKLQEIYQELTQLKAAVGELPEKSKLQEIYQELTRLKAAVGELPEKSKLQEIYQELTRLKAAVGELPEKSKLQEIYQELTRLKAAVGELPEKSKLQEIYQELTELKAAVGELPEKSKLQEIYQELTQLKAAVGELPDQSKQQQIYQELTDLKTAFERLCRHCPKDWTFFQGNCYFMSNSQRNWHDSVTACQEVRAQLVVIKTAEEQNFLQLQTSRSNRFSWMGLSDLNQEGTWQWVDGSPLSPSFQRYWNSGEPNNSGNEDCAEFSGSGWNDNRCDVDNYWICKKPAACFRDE
Sequence of UniProt D0VWV4 (whole entry, looked up): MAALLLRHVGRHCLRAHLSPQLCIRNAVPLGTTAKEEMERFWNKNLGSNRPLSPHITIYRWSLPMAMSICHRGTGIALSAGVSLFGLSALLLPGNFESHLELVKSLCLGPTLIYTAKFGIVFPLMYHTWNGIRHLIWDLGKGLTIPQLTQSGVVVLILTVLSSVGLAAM
Sequence of UniProt A5GZW8 (whole entry, looked up): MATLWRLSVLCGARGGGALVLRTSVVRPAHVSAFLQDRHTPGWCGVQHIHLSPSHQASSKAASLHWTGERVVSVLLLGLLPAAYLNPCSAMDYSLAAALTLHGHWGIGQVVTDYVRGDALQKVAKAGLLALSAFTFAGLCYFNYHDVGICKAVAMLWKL
Sequence of UniProt Q007T0 (whole entry, looked up): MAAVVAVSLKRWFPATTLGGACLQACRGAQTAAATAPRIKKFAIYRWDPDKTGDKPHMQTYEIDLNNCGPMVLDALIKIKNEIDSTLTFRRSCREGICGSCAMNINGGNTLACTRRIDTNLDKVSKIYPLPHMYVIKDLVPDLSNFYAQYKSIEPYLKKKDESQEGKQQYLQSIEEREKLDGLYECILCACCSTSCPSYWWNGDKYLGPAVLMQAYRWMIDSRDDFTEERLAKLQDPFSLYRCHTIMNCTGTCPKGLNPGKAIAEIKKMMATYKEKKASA
Sequence of UniProt Q9UH17 (whole entry, looked up): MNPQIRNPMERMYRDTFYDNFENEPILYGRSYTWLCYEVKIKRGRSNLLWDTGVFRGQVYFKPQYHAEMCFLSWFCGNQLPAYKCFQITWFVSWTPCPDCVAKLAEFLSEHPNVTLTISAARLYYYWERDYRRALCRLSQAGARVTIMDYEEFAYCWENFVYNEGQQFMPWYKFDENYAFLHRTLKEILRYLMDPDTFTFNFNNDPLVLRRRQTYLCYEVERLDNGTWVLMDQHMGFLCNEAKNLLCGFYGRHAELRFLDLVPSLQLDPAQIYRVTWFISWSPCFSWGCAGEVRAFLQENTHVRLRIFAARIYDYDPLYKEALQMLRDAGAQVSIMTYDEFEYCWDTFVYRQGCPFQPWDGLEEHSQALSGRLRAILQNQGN
Sequence of UniProt Q9Y2J8 (whole entry, looked up): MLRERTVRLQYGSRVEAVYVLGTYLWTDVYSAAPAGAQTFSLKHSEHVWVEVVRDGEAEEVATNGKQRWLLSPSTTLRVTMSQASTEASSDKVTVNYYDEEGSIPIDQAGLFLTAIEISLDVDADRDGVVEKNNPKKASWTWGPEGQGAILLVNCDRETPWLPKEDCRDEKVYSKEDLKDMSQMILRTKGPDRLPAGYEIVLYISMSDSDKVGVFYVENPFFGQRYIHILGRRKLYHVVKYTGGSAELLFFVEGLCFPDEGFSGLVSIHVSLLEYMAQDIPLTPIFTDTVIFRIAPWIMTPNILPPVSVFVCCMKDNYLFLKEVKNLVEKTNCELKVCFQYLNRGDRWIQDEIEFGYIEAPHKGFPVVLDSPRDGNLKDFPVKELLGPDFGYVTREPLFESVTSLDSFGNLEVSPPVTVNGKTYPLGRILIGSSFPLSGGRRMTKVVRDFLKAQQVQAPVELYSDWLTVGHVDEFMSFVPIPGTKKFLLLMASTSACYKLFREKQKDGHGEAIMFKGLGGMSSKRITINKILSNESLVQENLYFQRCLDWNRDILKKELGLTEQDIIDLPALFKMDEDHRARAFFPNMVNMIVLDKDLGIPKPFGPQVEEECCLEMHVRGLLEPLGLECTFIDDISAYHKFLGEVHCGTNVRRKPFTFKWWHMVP
Sequence of UniProt Q6DWJ6 (whole entry, looked up): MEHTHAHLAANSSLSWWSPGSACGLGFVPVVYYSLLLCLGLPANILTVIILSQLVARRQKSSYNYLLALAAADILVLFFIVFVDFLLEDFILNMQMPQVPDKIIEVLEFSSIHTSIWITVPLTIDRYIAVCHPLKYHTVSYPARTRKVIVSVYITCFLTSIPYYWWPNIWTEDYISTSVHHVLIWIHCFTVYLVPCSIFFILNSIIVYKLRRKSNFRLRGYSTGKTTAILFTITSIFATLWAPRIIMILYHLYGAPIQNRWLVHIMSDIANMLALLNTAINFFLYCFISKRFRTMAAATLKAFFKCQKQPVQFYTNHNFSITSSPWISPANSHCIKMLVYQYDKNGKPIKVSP
Sequence of UniProt Q14145 (whole entry, looked up): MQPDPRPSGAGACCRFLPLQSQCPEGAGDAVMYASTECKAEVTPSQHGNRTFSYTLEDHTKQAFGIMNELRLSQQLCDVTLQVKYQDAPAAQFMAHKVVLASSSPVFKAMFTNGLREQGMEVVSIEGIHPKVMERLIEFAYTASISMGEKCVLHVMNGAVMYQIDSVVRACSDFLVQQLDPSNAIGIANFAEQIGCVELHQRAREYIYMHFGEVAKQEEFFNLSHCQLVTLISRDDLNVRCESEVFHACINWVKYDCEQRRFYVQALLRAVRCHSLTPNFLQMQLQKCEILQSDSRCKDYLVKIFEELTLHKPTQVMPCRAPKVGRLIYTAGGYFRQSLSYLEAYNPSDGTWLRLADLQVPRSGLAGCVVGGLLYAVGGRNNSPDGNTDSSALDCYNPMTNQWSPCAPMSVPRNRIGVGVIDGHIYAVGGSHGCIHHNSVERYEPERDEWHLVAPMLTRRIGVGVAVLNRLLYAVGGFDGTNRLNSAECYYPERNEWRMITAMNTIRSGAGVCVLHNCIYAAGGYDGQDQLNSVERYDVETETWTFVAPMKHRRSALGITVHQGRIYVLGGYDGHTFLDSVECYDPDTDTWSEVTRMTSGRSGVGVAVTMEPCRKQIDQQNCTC
Sequence of UniProt P08913 (whole entry, looked up): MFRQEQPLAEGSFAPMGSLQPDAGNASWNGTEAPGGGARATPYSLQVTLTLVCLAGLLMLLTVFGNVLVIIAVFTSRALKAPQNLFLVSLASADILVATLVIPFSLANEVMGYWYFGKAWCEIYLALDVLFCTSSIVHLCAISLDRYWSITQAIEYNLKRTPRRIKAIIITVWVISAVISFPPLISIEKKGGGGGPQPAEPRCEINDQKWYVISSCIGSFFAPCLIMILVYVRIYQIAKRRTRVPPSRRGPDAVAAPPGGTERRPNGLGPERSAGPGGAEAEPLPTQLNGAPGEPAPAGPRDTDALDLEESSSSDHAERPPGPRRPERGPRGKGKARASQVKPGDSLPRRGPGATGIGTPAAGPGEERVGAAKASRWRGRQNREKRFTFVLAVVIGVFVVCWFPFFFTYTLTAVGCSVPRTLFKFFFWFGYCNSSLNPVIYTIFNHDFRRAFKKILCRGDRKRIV
Sequence of UniProt Q8K1N1 (whole entry, looked up): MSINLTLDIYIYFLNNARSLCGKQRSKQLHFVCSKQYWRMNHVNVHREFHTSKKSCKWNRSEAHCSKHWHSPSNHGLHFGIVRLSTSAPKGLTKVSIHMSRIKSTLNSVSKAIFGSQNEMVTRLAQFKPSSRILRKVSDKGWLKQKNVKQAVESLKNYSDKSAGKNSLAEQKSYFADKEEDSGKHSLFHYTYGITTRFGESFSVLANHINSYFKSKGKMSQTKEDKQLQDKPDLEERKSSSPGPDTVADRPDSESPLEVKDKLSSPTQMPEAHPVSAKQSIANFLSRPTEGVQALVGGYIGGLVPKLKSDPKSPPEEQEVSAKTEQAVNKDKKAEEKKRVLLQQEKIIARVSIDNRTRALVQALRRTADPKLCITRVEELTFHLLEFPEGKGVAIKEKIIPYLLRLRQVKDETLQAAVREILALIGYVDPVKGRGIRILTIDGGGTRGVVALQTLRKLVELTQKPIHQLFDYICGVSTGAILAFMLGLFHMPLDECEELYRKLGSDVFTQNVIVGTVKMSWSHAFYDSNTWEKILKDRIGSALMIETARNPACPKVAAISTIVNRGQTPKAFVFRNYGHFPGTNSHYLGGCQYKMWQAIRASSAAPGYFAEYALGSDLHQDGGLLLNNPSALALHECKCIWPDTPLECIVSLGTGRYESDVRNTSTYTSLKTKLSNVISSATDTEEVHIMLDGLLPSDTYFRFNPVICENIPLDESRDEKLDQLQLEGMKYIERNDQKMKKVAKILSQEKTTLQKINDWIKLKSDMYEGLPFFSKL

SMILES | target | assay | test system | conditions | how to read | endpoint | value
CCO[C@H]1[C@H](O)[C@@H](N)[C@@H](O[C@H]2[C@H](O[C@@H]3O[C@H](CO)[C@@H](O[C@H]4O[C@@H](CN)[C@@H](O)[C@H](O)[C@H]4N)[C@H]3O)[C@@H](O)[C@H](N)C[C@@H]2N)O[C@@H]1CO | Maoa (Rattus norvegicus, UniProt P21396) | radioligand binding |  | 10 µM, 1% DMSO |  | specific binding | 4%
CCCC[C@H]1CNCCN1C[C@@H]1CCCN1C[C@H](CC1CCCCC1)N1CCN(CCC23CC4CC(CC(C4)C2)C3)[C@H]([C@H](C)CC)C1 | Oprm1 | radioligand binding | rat brain membranes | 500 nM, pH 7.5, 25 °C, with: 0.87 nM [3H]DAMGO |  | remaining binding | 107 ± 7.64%
C#CCCCCOc1ccc2c(c1)CCCN2C(=O)CCl | TSPO (Homo sapiens, UniProt P30536) | mass spectrometry profiling | H460 cell lysate | 100 µM over 10 µM, UniProt P30536 | reference: high over low concentration | reactivity ratio | 1.43
CON(C(=O)c1cn(C)nc1C(F)F)C(C)Cc1c(Cl)cc(Cl)cc1Cl (stereo not shown) | SDHD/SDHC/SDHB (Sus scrofa, UniProt A5GZW8+D0VWV4+Q007T0) | enzyme activity, inhibitor, DCIP reduction | pig | 0.6 µM, with: DCIP 20 µM |  | reaction velocity | 0.00309 µM/s and 0.00344 µM/s and 0.00287 µM/s
CCCCCCCCCC(=O)CC(=O)Nc1cccc(OC)c1 | lasR | reporter gene, agonist | Pseudomonas aeruginosa PAO-JP2 | 100 µM, plasI-LVAgfp reporter | reference: OdDHL at same concentration | agonist activity | 1%
C=CC(=O)Nc1cc(-c2ccc(C(=O)N3CCCC(O)(CC)C3)cc2)ccc1F (stereo not shown) | DNA dC->dU-editing enzyme APOBEC-3B, C-terminal domain (Homo sapiens, UniProt Q9UH17) | covalent adduct, intact protein MS |  | 5 h, 20-fold excess, 500 µM |  | unmodified protein | 0% and 20%
CCc1nnc(-c2c(OC)cc(-c3cnc4cc(-c5cnn(C)c5)ccn34)cc2OC)o1 | ADRA2A (Homo sapiens, UniProt P08913) | antagonist radioligand, radioligand binding |  | 10 µM, SafetyScreen44 alpha 2 A replicate 2 | lower = stronger displacement | remaining binding | 104%
O=C(Cc1ccccc1)N[C@H]1CCSC1=O | sdiA |  |  |  |  | Emax | 89.4%
CC#CC(=O)NC[C@H](NC(=O)[C@H](CC1CCCCC1)NC(=O)[C@H](CCC(N)=O)NC(C)=O)C(=O)N[C@@H](CC(C)C)C(=O)N[C@@H](Cc1ccccc1)C(=O)O | Beta sliding clamp (Escherichia coli, UniProt P0A988, H175G) | isothermal titration calorimetry |  | 25 °C |  | -TΔS | 0.167 kJ/mol
CN(C)CCCSC(=S)N1CCN(C(=O)/C=C/c2coc3ccccc3c2=O)CC1 | Nucleoprotein (N, Tomato spotted wilt virus, UniProt P25999, R94A) | binding, microscale thermophoresis |  | 125 µM | dose series | MST response | 845 a.u.
O=C1NC(=O)c2c1c1cc(F)c[n+]3c1c1c2c2cc(O)ccc2[n]1[Ru-4]312([N]=C=S)[S+]3CC[S+]1CC[S+]2CC3 (stereo not shown) | NEK11 (Homo sapiens, UniProt Q8NG66) | enzyme activity |  | 100 nM, human enzyme, with: 10 µM ATP | reference: untreated | remaining activity | 94%
CC(C)CC(O)(CC(C)C)c1cn(C(=O)N2CCCC2)nn1 | Dipeptidyl peptidase 8 (Dpp8, Mus musculus, UniProt Q80YA7) | probe labelling, inhibitor, refers to: Dpp8 | mouse, brain | i.p., 0.8 mg/kg, 4 h, protein level | reference: treated over vehicle mice, lower = stronger inhibition | activity ratio-of-ratios | 0.67
CCCCCCCCCC(=O)NC1CCCC1 | lasR | reporter gene, agonist | Escherichia coli JLD271 | 10 µM, pSC11 and pJN105L plasmids | reference: OdDHL at same concentration | agonist activity | 20%
O=C(Cc1cccc([N+](=O)[O-])c1)N[C@H]1CCOC1=O | sdiA |  |  |  |  | Emax | 118%
CCOC(=O)[C@@H]1Cc2c(cc([N+](=O)[O-])cc2[N+](=O)[O-])[C@H](O)[C@]12C(=O)Nc1ccc(Br)cc12 | CDK3 (Homo sapiens, UniProt Q00526) | KINOMEscan |  | 100 nM | reference: DMSO control | remaining binding | 41%
O=C(CCCCCCCCCN=C=S)CC(=O)N[C@H]1CCOC1=O | lasR | reporter gene, agonist |  |  | reference: EC50 PAO-JP2 over E. coli JLD271 | potency ratio | 150

SMILES | target | assay | test system | conditions | how to read | endpoint | value
CN1CCCN(C(=O)c2ccc(S(=O)(=O)F)cc2)c2ccccc21 | Uncharacterized hydrolase SAUSA300_2518 | enzyme activity, inhibitor, fluorogenic substrate |  | 5 µM |  | remaining activity | 112% and 114%
N[C@H](C(=O)N1CCCC1)C1CCN(c2nccc3c(-c4ncc(Cl)cc4Cl)cccc23)CC1 | PADI2 (Homo sapiens, UniProt Q9Y2J8) | enzyme activity |  | 0.01573 µM, low-affinity site, with: Ca2+ 0.25 mM |  | kcat | 0.937 s⁻¹ and 0.953 s⁻¹
CCNC(=S)NN=Cc1c2ccccc2cc2ccccc12.Cc1ccc(C(C)C)cc1.[Cl-].[Cl-].[Ru+2] | Albumin (ALB, Homo sapiens, UniProt P02768) | modified Stern-Volmer |  | 301 K |  | binding constant | 9.82 ± 3.42 10⁴ M⁻¹
COCC1CCCCN1C(=O)n1cc(C(O)(c2ccccc2)c2ccccc2)nn1 (stereo not shown) | Pnpla8 (Mus musculus, UniProt Q8K1N1) | probe labelling, inhibitor, competitive ABPP-SILAC | mouse T cells | concentration not given, 4 h, protein level | reference: treated over DMSO cells, lower = stronger inhibition | SILAC activity ratio | 1.29
COc1ccccc1-c1n[nH]c2nc(N[C@H]3CC[C@H](NS(=O)(=O)CC(C)C)CC3)ncc12 | cyclin 9 (Leishmania donovani, UniProt A0A2D1QVA3) | competitor, bead pull-down competition | Leishmania donovani extract | 0.08 µM | reference: vehicle | remaining binding | 9%
CCCCCCCCCC(=O)CC(=O)N[C@H]1CCOC1=O | lasR | reporter gene, agonist | Pseudomonas aeruginosa PAO-JP2 | 100 µM, plasI-LVAgfp reporter | reference: OdDHL at same concentration | agonist activity | 88%
O=C(Nc1ccncc1)c1ccccc1OS(=O)(=O)F | Uncharacterized hydrolase SAUSA300_2518 | enzyme activity, inhibitor, fluorogenic substrate |  | 10 µM |  | remaining activity | 44.5% and 41%
Cc1cc(-c2ccc3ccccc3c2)nnc1NCCN1CCN(C)CC1 | AVPR1A (Homo sapiens, UniProt P37288) | antagonist |  | 10000 nM | reference: control | activity | 0%
CC(C)[C@H]1NC(=O)C[C@H]2/C=C/CCSSC[C@@H](NC1=O)C(=O)N[C@H](Cc1cccc3ccccc13)C(=O)NCC(=O)O2 | FGFR4 (Homo sapiens, UniProt P22455, V550L) | enzyme activity, inhibitor |  | 10 µM |  | inhibition | 2.5%
CC[C@H](C)[C@H](NC(=O)[C@H](CCCNC(=N)N)NC(=O)[C@H](CCCNC(=N)N)NC(=O)[C@H](CC(C)C)NC(=O)[C@H](Cc1ccccc1)NC(=O)CNC(=O)CNC(=O)[C@@H](N)Cc1ccc(O)cc1)C(=O)N[C@@H](CCCNC(=N)N)C(=O)N1CCC[C@H]1C(=O)N[C@@H](CCCCN)C(=O)N[C@@H](CC(C)C)C(=O)N[C@@H](CCCCN)C(=O)O | GPR139 (Homo sapiens, UniProt Q6DWJ6) | Gαi1 activation, agonist, BRET | HEK293T/17 | 40 µM |  | Emax | 68.2% and 64.9%
CS(C)(=O)=Nc1ccc(-c2ccc(-c3nc4cc(O[C@@H]5CO[C@H]6[C@@H]5OC[C@H]6O)[nH]c4cc3F)cc2)cc1 | FGFR2 (Homo sapiens, UniProt P21802, N549H) | enzyme activity, inhibitor |  | 10 µM |  | inhibition | 9%
CC(C)[C@@H]1NC(=O)[C@H](CC(N)=O)NC(=O)CNC(=O)[C@H](CC(N)=O)NC(=O)[C@H](C)NC(=O)[C@H](CC(=O)O)NC(=O)[C@H]([C@@H](C)O)NC(=O)[C@H](CCC(=O)O)NC(=O)CNC(=O)[C@H]([C@@H](C)O)NC(=O)[C@H](CCC(=O)O)NC(=O)[C@H](CCC(=O)O)NC(=O)[C@H](CC(=O)O)NC1=O | KEAP1 (Homo sapiens, UniProt Q14145) | Keap1-Nrf2 binding, inhibitor, competitive FP |  | 0.3906 µM, 30 min, with: Nrf2 peptide probe | lower = stronger inhibition | fluorescence polarization | 0.383 a.u. and 0.341 a.u.
CN(C)[C@H]1C[C@@]23CC[C@@]4(O2)C(=CC[C@]2(C)[C@@H](c5ccc6ccncc6c5)CC[C@H]24)C=C3[C@@H](O)[C@@H]1O | PI4K2B (Homo sapiens, UniProt Q8TCG2) | ATP probe labelling, inhibitor, KiNativ profiling |  | 1 µM |  | inhibition | 11.8%
CCCC[C@H]1CNCCN1C[C@@H]1CCCN1C[C@@H](Cc1ccc2ccccc2c1)N1CCN(CCCC2CCCC2)[C@H](Cc2ccc(O)cc2)C1 | Oprm1 | radioligand binding | rat brain membranes | 500 nM, pH 7.5, 25 °C, with: 0.87 nM [3H]DAMGO |  | remaining binding | 98.2 ± 5.74%
N=C(N)NCc1cn([C@@H]2[C@@H](OCCCl)O[C@H](CO)[C@@H](O)[C@@H]2O)nn1 | C-type lectin domain family 4 member M, extracellular domain (CLEC4M, Homo sapiens, UniProt Q9H2X3) | isothermal titration calorimetry |  |  |  | ΔG | -27.8 kJ/mol and -28.3 kJ/mol and -27.9 kJ/mol

Repeated from above:
SMILES | target | assay | test system | conditions | how to read | endpoint | value
CC(C)CC(O)(CC(C)C)c1cn(C(=O)N2CCCC2)nn1 | Dipeptidyl peptidase 8 (Dpp8, Mus musculus, UniProt Q80YA7) | probe labelling, inhibitor, refers to: Dpp8 | mouse, brain | i.p., 0.8 mg/kg, 4 h, protein level | reference: treated over vehicle mice, lower = stronger inhibition | activity ratio-of-ratios | 0.67
CCCC[C@H]1CNCCN1C[C@@H]1CCCN1C[C@@H](Cc1ccc2ccccc2c1)N1CCN(CCCC2CCCC2)[C@H](Cc2ccc(O)cc2)C1 | Oprm1 | radioligand binding | rat brain membranes | 500 nM, pH 7.5, 25 °C, with: 0.87 nM [3H]DAMGO |  | remaining binding | 98.2 ± 5.74%
O=C(CCCCCCCCCN=C=S)CC(=O)N[C@H]1CCOC1=O | lasR | reporter gene, agonist |  |  | reference: EC50 PAO-JP2 over E. coli JLD271 | potency ratio | 150
CCCC[C@H]1CNCCN1C[C@@H]1CCCN1C[C@H](CC1CCCCC1)N1CCN(CCC23CC4CC(CC(C4)C2)C3)[C@H]([C@H](C)CC)C1 | Oprm1 | radioligand binding | rat brain membranes | 500 nM, pH 7.5, 25 °C, with: 0.87 nM [3H]DAMGO |  | remaining binding | 107 ± 7.64%
